Published values from different studies.
Every numbered part comes from another study and shows a few of its results, in no order.

Set 1 — technique: RNA Bind-n-Seq; molecule type: RNA; medium: in vitro; concentration: 200 nM; setting: whole 134-nt RNA, ends assumed; added: 150 mM KCl; reference: input library; direction: higher = stronger binding
Target: Fragile X messenger ribonucleoprotein 1, C-terminal low-complexity region (Fmr1, Mus musculus, UniProt P35922)
Sequence | log2 enrichment
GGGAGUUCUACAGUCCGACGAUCGCAGGAAGUAAAAACAAAUGGAAAUGCUUCGGAUAGUGGCAGGGGUGGGGAAAGCUAAGGAAAGGGUGGGAUGGGAGUGGGUAAAGAGUUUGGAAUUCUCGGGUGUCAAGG | 0.325
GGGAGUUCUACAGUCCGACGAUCUCCUGUGCUACACAUCGUAUGUACCGAAUCGGGUUUUUUGGGUUUUUUGGGUUUUUUGGAAAGUAUUAUGUUACGCCGUUCGGAUCUGCAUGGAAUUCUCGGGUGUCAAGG | 0.17
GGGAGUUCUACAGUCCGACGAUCCUUUGUAAUGGGAACUGCCUCUUUCCUGUUGUUGUUAAUGAAAAUGUCAGAAACCAGUUAUGUGAAUGAUCUCUCUGAAUCCUAAGGGCUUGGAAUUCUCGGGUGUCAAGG | -0.119
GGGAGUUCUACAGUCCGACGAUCCCUCAAGUCCUGUGCUACACAUCGUAUGUACCGAAUCGGAAAGGUGGAAAGGAAAGUAUUAUGUUACGCCGUUCGGAUCUGCACUUCCAGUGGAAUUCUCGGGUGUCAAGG | 0.0567
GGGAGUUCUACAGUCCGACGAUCACCAUGCAGGUGGGCAUCUUUGGGAAGUGGGGCAUGGGGGGGAUAGGGAGGGGGGUAACACUUUGGGAACAGGUGGUCCCAGGUCGUUUCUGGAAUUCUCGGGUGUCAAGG | 0.876
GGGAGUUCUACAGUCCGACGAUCUCAAGUCCUGUGCUACACAUCGUAUGUACCGAAUCGGGGUUGGGGUUGGGUUGGAAAGUAUUAUGUUACGCCGUUCGGAUCUGCACUUCCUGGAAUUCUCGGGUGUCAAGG | 0.15
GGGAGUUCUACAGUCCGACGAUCUGGCCCUGGUGGCAUGCGGGGAGGAAGAGGUGGCCUCAUGGAUCGUGAUGGUCCCGGUGGAAUGUUCAGAGGUGGCCGUGGUGGAGACAGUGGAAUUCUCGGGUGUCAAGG | -0.0858
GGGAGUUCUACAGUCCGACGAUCCACAGACAACACGCACCCACACAGACACAGAGGGAAGGGGUUGGGAUGGGGACAGGGUGCACAGCAGGGCGGGGUAGCACCCCAGCCCCUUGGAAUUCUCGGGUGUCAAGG | 1.35
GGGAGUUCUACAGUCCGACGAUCUAACUUUAGAGGAGGAUCUGAUGGAUAUGGCAAUGGACGUGGAUUUGGGGAUGGCUAUAAUGGGUAUGGAGGAGGACCUGGAGGUGGCAAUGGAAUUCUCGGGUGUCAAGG | 0.324
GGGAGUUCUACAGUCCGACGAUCUUCCCUGUACCGGCAGAGUUCACAAACACAUUUGAAGAGGCUUUUUCUCAGGAUUCUUAACCUUCCCAAAGGAAGUCCCAUGGAUGGGUUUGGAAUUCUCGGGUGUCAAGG | -1.02

Set 2 — technique: RNA Bind-n-Seq; molecule type: RNA; medium: in vitro; concentration: 20 nM; setting: 6-mer, flanks averaged, single round; added: 150 mM KCl; reference: input library; direction: higher = stronger binding
Target: TAR DNA-binding protein 43, full length, His tag (TARDBP, Homo sapiens, UniProt Q13148, residues 1-414)
Sequence | 6-mer enrichment (R)
CAAAAA | 0.717
GGUGUA | 1.42
ACAGAG | 1.04
GCUGAC | 0.846
GAAUUU | 0.636
UAGGGA | 2.02
GCCUCA | 0.676
CAUAUU | 0.599
UUAGUU | 0.616
UCAGAU | 0.58
AGCUGA | 0.783
UUAUGG | 0.867
CACAAG | 0.758
GUGUAG | 1.45
CUACGC | 0.645
CCGGCU | 0.79
AGCUUG | 0.775

Set 3 — technique: RNA Bind-n-Seq; molecule type: RNA; medium: in vitro; concentration: 365 nM; reference: no-protein control; direction: higher = stronger binding
Target: RNA binding protein fox-1 homolog 2, RRM domain, GST-SBP tag (RBFOX2, Homo sapiens, UniProt O43251-10, residues 100-194)
Setting: natural RNA segment, single round, ends assumed
Construct (chain): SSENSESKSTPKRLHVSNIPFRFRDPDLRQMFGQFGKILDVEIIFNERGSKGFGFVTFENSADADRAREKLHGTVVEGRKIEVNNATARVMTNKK
Sequence | RBNS enrichment (R)
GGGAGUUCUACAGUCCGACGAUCAGUAAGGGUUGUGGGUUAUACCGGCAUAGAGAAAAGAAGAAAACUAGAAUUGAAACAACUGUGUCUUAGACAUUUGUUUGAAAAAGCUUCAUCAGGCCUUGGAGCAGUCAUGGAAUUCUCGGGUGCCAA | 0.467
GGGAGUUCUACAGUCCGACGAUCAGGGGAACACCCCCUUCCCCAGGUCUUUUAUUUGUUUAAGUUAUUUUUGCACAAAUGACUCUUUUAUAUUUAAUUCGAUUUCAUUGCCUCCCUUCUUAAAGCCAACAGGCUGGAAUUCUCGGGUGCCAA | 0.962
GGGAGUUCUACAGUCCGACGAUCUUAAACCCCUGUUAACUCUCCAUAAAUUUGGUGAUUCUCUGCUAGGCCUAAGAUUUUGAGUUAACAUCUCUUGAAGCCAAACUCCACCUUCUGUGCUUUUUGCUUGGGAUUGGAAUUCUCGGGUGCCAA | 0.43
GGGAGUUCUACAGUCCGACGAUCGUAAGGUCCGAUUCCUACCAGGAAGUGCUUGCUGCUUCUUUGAUUAUGACUGGUUUGGGGUGGGGGGCAGUUUAUUUGUUGAGAGUGUGACCAAAAGUUACAUGUUUGCAUGGAAUUCUCGGGUGCCAA | 6.11
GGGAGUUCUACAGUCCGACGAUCGCCACUGCGCCUGGCCUCAGAAUGCAUUCUUACACAUCUAUCCUAGACAUUUAUAAGCACUCUAAUGGAUAACAAUCCAAGAAUAAAUGAUUGUAAAAGAUGAUGCCGAAUGGAAUUCUCGGGUGCCAA | 1.52
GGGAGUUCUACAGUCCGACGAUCAGCACUGUUAGACACACACAGACCUGCAGGCUGUUUUAGAAUGUUUUGAUCUCUUUGGGGAAUCUGGAGUACAGGCCUCUCCGCCCCUGACCACCGAAACGUGCAGGCAUUGGAAUUCUCGGGUGCCAA | 0.685
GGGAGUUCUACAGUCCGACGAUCGAGAGAGACAAAAGUGUUUGUUUGUUUUGUUUCCAGGAGCUUGUCAAAUAAACCAAUGAAAAAGCUUUGCCGAUGAUAAUAAAAGAUGCUCACACUUUCAUAGCGCUUGCUGGAAUUCUCGGGUGCCAA | 0.659
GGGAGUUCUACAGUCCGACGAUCUUGCGUGUGUGUAGAUGAGGGGCGGGGGACGGGCGCCAGGCAUUGUCCAGACCUGGUCGGGGCCCACUGGAAGCAUCCAGAACAGCACCACCAUCUAGCGGCCGCUCGAGUGGAAUUCUCGGGUGCCAA | 0.646
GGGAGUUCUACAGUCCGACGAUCAUCACAGAUGCCAUUUCUGUUUUAUUGAUGAUUAUAUGAGACUUUUAAUACAUAAAUGAACGGGUACUGGUGCCUCUUUAUUUUUAAAAAUUUGAAGAAAAAGAGCCACCUGGAAUUCUCGGGUGCCAA | 0.466
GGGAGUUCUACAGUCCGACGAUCUCCCUGAGUUCUGCUCUGACAUAAGGAAGUCCUCGGUGGCUGGUGCAGCGCGGCUGUGCUGUGCUGGGGAGGCAGCCGUUCCUUCGGGGGUCCUUGGGCCUGCAGUCCCCUGGAAUUCUCGGGUGCCAA | 0.271
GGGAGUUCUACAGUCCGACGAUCCUUUUCUUUUAUGAUCCUUCUCUGCUAGAACAGGUUAAUUCUCCAAAUUUGUUUUGUUUUGUUUUGUUAUUUUUUAGGGAACUCUUUUGCAAAAGCAAUGGUCGGAUGUAUGGAAUUCUCGGGUGCCAA | 3.12
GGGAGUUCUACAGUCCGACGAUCUCAUAGUCAGUGAGUGUGAAAGUUAGGCAUAAUAAUGGCAUCUCCCCACUUUAGGGUUCUCAAAUACUUUGGACAUCUCUUUCCUUAGAGCCAGGUAGAUGUCUUACAGGUGGAAUUCUCGGGUGCCAA | 0.376

Set 4 — technique: protein-binding microarray; molecule type: double-stranded DNA, one strand shown; medium: in vitro; concentration: not given; direction: higher = stronger binding
Target: Max-binding protein MNT, bHLH-zipper, MAX partner unstated (MNT, Homo sapiens, UniProt Q99583, residues 220-300)
Setting: k-mer, scored over probes, only values ≥0.25
Target sequence (chain): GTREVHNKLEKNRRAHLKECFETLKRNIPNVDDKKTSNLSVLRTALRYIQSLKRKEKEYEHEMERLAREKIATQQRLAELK
Sequence | E-score
ACGTGGTG | 0.437
CGTGGGCA | 0.347
CCCCATGC | 0.409
CGTGGAGC | 0.376
CATGTGCC | 0.464
CAGCCCCA | 0.265
ATGGGGCG | 0.285
AGCCCCAA | 0.256
CGGGGCAC | 0.321
ACATGGTC | 0.412
ATGTGGGC | 0.33
CGAGCCAC | 0.276
AGTACATG | 0.262
AAGCGCGC | 0.282
CGTGGGAC | 0.416
CTGCGTGA | 0.278

Repeated from above (set 1):
Sequence | log2 enrichment
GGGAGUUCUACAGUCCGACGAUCCCUCAAGUCCUGUGCUACACAUCGUAUGUACCGAAUCGGAAAGGUGGAAAGGAAAGUAUUAUGUUACGCCGUUCGGAUCUGCACUUCCAGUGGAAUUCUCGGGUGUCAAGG | 0.0567
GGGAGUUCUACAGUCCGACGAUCACCAUGCAGGUGGGCAUCUUUGGGAAGUGGGGCAUGGGGGGGAUAGGGAGGGGGGUAACACUUUGGGAACAGGUGGUCCCAGGUCGUUUCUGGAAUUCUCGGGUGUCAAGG | 0.876
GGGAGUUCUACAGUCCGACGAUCUCAAGUCCUGUGCUACACAUCGUAUGUACCGAAUCGGGGUUGGGGUUGGGUUGGAAAGUAUUAUGUUACGCCGUUCGGAUCUGCACUUCCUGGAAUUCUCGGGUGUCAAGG | 0.15
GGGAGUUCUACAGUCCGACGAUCUGGCCCUGGUGGCAUGCGGGGAGGAAGAGGUGGCCUCAUGGAUCGUGAUGGUCCCGGUGGAAUGUUCAGAGGUGGCCGUGGUGGAGACAGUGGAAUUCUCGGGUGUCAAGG | -0.0858
